Literature values as cited in several papers.
Lines come from different studies, so protocols differ. ± marks the error that the study gave.
CD58 with CD2: Lymphocyte function-associated antigen 3, with CD2 (CD58, Homo sapiens, UniProt P19256)

By UniProt entry, the sequences of proteins in these tests, tags left out. Residues count along the entry.
UniProt P19256, 29-250 limits assumed: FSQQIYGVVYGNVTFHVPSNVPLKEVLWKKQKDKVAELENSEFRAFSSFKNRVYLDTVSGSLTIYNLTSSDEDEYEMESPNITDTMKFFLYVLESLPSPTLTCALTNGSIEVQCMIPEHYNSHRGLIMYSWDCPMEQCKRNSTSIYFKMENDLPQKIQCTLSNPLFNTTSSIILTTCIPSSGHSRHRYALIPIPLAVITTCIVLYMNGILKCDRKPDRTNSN
UniProt P29474, whole entry: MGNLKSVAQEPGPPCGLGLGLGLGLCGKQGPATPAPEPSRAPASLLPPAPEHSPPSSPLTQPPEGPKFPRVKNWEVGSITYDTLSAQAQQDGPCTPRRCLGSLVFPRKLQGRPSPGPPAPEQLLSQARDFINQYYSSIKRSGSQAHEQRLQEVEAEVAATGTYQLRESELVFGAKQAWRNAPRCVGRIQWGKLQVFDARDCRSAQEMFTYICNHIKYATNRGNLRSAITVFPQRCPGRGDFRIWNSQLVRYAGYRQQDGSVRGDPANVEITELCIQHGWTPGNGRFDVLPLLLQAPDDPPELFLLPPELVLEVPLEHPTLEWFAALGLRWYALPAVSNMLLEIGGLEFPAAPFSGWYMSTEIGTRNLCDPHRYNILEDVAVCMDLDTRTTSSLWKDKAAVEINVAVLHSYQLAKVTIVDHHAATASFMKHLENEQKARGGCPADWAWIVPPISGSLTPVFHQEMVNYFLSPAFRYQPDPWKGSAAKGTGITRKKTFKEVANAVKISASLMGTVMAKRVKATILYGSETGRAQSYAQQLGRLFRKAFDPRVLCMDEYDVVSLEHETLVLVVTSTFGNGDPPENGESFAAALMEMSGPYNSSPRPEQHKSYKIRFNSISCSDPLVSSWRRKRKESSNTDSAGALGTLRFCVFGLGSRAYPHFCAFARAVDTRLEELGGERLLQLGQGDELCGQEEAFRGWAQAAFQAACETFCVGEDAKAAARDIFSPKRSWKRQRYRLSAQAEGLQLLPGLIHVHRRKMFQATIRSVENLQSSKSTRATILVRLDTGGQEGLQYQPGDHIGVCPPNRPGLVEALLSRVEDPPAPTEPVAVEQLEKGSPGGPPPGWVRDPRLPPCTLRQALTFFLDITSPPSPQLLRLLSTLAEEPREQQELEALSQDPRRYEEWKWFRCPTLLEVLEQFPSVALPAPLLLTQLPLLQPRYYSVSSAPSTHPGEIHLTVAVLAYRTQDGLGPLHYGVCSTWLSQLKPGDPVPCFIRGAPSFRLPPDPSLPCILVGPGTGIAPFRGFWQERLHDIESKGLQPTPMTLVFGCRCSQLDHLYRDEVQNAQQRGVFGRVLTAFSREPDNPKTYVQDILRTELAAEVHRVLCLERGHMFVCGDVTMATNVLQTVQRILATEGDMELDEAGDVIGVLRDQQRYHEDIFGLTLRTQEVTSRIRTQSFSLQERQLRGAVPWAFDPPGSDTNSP
UniProt P29473, whole entry: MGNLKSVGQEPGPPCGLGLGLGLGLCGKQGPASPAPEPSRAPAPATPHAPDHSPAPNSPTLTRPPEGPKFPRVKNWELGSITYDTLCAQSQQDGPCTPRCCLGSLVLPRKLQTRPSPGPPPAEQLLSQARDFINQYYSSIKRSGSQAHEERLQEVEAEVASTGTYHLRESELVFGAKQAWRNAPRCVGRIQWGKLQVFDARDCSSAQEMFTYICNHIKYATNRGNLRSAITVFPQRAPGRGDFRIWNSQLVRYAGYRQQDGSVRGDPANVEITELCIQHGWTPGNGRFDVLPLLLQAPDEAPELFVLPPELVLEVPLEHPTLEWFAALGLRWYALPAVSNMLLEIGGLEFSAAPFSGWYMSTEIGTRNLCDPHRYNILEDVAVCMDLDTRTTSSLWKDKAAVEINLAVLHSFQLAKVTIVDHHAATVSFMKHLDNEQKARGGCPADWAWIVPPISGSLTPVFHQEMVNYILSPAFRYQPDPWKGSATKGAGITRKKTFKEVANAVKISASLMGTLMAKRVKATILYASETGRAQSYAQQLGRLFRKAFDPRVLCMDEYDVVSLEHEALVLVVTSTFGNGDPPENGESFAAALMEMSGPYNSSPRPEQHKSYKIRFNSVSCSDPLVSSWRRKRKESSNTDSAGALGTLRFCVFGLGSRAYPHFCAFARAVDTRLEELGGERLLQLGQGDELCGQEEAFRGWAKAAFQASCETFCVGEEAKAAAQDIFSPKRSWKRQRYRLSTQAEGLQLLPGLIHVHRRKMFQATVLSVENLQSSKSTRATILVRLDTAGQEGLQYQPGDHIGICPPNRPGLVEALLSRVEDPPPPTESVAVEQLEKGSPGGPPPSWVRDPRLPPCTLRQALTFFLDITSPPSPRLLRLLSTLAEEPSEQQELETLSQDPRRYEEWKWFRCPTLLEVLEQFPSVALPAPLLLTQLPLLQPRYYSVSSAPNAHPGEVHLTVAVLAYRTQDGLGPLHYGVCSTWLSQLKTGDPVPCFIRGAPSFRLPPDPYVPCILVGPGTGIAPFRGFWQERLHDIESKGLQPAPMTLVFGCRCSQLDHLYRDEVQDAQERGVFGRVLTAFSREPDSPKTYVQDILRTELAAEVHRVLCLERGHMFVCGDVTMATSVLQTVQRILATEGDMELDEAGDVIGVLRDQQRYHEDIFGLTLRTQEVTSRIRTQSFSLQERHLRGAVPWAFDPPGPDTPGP
UniProt P32300, whole entry: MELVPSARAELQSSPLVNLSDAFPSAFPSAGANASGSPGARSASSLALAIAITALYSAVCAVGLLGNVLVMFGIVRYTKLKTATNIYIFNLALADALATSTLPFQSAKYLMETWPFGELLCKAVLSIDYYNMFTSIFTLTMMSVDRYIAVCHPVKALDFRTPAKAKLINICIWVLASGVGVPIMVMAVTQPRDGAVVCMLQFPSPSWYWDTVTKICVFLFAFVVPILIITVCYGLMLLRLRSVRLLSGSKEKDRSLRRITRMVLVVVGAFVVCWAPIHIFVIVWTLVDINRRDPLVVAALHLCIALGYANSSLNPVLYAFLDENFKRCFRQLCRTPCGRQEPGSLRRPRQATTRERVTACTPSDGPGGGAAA
UniProt P06729, 25-351 partner limits assumed: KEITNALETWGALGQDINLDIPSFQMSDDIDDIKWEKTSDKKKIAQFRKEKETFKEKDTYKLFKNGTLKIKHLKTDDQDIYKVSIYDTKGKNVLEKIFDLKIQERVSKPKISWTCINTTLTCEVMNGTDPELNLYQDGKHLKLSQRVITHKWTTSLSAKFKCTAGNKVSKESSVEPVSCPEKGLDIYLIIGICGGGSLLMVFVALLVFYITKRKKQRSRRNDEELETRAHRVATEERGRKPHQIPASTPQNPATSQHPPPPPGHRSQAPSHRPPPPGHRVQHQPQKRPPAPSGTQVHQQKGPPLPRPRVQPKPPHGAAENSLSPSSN

Molecule	target	read-out	action	technique	cells	endpoint	value
O=C(/C=C/c1nc2ccccc2[nH]1)c1c(-c2ccccc2)c2cc(Cl)ccc2[nH]c1=O	AKT	kinase activity	ATP-competitive inhibitor			IC50	2300 nM
CCCCCCCC(=O)OC[C@H](COP(=O)(O)O[C@H]1[C@H](O)[C@@H](OP(=O)(O)O)[C@H](OP(=O)(O)O)[C@@H](OP(=O)(O)O)[C@H]1O)OC(=O)CCCCCCC	PBD1			SPR		Kd	96 nM
C[C@@H]1NC(=O)[C@H](CCCCN)NC(=O)[C@@H]2CSSC[C@H](NC(=O)[C@H](CO)NC(=O)[C@@H]3CCCN3C(=O)[C@@H]3CCCN3C(=O)[C@H](C)NC(=O)[C@H](CO)NC1=O)C(=O)N[C@@H](Cc1ccc(O)cc1)C(=O)N[C@@H](CC(=O)O)C(=O)NCC(=O)N[C@@H](CC(=O)O)C(=O)N[C@@H](CC(=O)O)C(=O)N2	CD58 with CD2	cell adhesion	inhibitor		Jurkat on HFLS-RA	IC50	51 ± 25 nM
Cc1cc(N)nc(CCc2cccc(C(CN)Cc3cc(C)cc(N)n3)c2)c1 (centres unmarked)	NOS3 (Homo sapiens, UniProt P29474)					Ki	6620 nM
C[C@@H]1NC(=O)[C@@H]2CSSC[C@H](NC(=O)[C@H](CC(=O)O)NC(=O)[C@H](CC(=O)O)NC(=O)CNC(=O)[C@H](CC(=O)O)NC(=O)[C@H](Cc3ccc(O)cc3)NC1=O)C(=O)N[C@@H](CCCCN)C(=O)N[C@@H](CO)C(=O)N[C@@H](C)C(=O)N1CCC[C@H]1C(=O)N1CCC[C@H]1C(=O)N[C@@H](CO)C(=O)N2	CD58 with CD2	lymphocyte adhesion	inhibitor		Jurkat on OVCAR-3 cells	IC50	23 ± 46 nM
Cc1cc(N)nc(CCc2cccc(C(O)Cc3cc(C)cc(N)n3)c2)c1 (centres unmarked)	NOS3 (Bos taurus, UniProt P29473)					Ki	2680 nM
[D-Ala2,Leu5,Cys6]enkephalin	Oprd1 (Mus musculus, UniProt P32300)	binding				concentration for 50% site loss	3 µM
O=C(CC[C@H](Cc1ccc(C(=O)O)cc1)C(=O)O)NO	glutamate carboxypeptidase II	enzyme activity	inhibitor	radioenzymatic or HPLC		IC50	20 nM

Repeated from above:
Molecule	target	read-out	action	technique	cells	endpoint	value
O=C(CC[C@H](Cc1ccc(C(=O)O)cc1)C(=O)O)NO	glutamate carboxypeptidase II	enzyme activity	inhibitor	radioenzymatic or HPLC		IC50	20 nM
